# Earlier results that unrelated publications cite.
# Each line is one published result; not all experiments were run side by side. ± marks the error that the study gave.
# TRPM channel TRPM_PZQ: TRPM channel TRPM_PZQ (Schistosoma mansoni, UniProt A0A5K4F0X5)
# UniProt O60603, sequence (whole entry, looked up): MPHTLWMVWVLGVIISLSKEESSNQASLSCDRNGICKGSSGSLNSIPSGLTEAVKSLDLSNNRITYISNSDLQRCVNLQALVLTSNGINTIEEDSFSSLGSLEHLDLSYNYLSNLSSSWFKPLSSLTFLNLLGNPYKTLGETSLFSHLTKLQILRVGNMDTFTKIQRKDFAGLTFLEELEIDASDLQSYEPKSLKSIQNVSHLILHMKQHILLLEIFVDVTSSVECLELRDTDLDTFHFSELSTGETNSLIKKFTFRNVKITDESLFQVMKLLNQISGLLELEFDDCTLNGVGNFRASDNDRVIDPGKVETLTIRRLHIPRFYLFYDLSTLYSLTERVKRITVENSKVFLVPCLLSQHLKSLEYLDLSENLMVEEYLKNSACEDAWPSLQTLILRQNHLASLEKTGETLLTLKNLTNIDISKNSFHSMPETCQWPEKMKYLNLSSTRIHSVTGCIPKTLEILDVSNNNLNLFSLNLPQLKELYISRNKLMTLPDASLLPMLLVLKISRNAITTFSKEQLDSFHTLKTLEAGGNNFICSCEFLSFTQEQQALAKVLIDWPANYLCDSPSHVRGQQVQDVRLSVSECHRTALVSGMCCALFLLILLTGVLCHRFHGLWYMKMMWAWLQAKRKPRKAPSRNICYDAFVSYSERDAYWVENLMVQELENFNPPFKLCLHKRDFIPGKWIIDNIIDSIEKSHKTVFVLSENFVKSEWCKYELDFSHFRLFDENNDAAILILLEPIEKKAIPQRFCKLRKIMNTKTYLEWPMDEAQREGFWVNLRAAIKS
# UniProt P04818, sequence (whole entry, looked up): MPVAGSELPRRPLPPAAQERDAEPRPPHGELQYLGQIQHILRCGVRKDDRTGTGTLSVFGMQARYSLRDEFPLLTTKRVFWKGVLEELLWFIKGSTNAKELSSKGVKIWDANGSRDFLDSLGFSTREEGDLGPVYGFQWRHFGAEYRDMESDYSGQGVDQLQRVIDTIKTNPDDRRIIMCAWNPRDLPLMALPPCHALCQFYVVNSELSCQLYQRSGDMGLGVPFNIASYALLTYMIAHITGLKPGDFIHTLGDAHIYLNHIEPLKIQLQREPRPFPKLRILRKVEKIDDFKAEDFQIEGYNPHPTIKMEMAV
# UniProt P08913, sequence (whole entry, looked up): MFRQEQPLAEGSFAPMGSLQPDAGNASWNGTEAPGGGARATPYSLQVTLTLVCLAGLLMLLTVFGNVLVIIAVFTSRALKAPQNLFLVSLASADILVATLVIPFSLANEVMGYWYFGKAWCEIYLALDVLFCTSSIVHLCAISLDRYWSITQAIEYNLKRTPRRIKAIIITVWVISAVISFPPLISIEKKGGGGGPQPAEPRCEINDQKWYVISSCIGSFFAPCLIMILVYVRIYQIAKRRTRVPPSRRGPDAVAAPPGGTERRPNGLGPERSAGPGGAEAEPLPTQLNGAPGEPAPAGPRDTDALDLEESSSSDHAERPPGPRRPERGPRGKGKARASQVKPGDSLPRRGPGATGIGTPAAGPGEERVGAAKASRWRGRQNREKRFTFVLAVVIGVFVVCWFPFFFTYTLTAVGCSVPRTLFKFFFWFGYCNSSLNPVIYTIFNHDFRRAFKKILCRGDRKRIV
# UniProt Q9Y2C9, sequence (whole entry, looked up): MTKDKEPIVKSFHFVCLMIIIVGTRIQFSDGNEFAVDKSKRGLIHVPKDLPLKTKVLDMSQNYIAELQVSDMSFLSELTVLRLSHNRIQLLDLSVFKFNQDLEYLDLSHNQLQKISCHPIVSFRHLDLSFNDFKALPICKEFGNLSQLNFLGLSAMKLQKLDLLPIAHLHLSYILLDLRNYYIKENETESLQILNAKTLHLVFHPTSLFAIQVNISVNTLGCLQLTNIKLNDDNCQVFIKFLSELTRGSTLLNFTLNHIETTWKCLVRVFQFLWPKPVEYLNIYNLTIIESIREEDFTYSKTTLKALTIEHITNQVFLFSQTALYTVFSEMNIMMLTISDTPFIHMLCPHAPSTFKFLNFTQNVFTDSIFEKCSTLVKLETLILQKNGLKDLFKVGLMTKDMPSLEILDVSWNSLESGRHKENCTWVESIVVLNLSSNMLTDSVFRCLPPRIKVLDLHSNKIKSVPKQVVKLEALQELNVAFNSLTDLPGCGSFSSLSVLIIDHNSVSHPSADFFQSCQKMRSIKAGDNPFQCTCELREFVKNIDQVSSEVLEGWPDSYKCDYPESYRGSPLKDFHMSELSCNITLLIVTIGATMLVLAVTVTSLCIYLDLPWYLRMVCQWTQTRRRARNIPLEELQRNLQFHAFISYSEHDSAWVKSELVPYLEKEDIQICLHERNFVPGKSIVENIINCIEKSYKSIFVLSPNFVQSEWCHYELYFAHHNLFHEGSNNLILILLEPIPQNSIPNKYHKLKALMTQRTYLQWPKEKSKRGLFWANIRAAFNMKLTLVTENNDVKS
# UniProt O15244, sequence (whole entry, looked up): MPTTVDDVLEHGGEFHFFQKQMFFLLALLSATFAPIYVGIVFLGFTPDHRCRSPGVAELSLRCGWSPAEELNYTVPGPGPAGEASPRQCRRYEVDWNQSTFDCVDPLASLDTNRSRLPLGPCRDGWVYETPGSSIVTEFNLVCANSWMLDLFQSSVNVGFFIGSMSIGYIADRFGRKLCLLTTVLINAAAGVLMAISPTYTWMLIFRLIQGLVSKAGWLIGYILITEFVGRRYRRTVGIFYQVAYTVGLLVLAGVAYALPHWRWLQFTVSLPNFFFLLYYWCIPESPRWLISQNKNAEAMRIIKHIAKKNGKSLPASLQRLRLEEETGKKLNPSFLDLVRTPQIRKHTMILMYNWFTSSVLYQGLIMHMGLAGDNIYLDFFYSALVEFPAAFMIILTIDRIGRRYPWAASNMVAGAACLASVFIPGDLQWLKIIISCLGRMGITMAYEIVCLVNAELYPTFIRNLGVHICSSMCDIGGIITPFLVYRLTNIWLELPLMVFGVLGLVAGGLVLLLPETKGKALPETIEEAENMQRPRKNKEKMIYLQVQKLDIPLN
# UniProt P41595, sequence (whole entry, looked up): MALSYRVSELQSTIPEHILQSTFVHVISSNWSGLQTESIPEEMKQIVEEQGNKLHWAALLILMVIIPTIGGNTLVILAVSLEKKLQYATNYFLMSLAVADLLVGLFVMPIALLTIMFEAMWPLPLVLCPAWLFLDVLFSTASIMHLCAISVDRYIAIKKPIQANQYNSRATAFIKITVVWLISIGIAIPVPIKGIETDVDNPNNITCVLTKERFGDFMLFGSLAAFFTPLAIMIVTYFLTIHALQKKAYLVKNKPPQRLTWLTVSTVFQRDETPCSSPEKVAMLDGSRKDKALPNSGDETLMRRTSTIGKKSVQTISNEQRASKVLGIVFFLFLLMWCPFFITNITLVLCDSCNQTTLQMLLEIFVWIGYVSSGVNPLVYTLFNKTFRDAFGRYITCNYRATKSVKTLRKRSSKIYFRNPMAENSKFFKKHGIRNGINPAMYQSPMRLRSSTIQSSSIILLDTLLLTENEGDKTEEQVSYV
# UniProt Q96SB4, sequence (whole entry, looked up): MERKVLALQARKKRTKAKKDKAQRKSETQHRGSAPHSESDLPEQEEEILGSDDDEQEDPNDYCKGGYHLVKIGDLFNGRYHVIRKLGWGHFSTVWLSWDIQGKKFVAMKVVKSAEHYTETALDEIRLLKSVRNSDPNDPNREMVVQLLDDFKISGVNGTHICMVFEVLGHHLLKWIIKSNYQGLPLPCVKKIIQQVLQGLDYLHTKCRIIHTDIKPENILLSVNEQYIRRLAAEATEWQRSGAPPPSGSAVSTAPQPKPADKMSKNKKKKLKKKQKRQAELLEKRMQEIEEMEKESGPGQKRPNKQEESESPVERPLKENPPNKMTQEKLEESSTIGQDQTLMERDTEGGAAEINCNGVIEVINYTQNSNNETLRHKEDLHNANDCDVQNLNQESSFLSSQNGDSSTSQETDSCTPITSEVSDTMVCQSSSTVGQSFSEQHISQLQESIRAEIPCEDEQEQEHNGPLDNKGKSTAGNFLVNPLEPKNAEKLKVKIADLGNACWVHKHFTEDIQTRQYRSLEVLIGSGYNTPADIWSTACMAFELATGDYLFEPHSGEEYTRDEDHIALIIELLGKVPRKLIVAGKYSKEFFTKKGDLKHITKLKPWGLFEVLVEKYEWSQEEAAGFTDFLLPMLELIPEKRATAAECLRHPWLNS
# UniProt P97678, sequence (whole entry, looked up): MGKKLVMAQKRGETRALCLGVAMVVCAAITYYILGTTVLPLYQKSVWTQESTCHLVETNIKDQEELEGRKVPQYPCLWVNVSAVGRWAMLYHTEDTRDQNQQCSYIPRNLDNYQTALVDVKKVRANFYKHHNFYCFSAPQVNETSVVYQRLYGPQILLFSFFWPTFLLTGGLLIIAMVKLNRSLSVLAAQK
# UniProt P10632, sequence (whole entry, looked up): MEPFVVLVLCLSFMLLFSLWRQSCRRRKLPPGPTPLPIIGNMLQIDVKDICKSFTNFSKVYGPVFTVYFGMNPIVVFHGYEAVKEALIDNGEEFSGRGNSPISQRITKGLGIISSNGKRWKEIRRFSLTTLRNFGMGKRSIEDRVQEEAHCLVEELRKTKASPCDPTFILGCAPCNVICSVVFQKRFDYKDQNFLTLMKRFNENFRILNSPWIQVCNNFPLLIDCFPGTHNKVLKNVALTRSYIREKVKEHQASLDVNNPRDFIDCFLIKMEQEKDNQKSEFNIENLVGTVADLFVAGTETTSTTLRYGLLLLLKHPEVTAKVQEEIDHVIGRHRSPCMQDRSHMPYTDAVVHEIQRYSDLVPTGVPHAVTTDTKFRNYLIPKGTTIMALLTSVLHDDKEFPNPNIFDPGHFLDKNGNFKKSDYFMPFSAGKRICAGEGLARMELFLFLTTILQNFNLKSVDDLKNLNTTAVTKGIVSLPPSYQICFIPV
SMILES,tested on,test,test system,conditions,how to read,endpoint,result
CCCCC/C=C\C[C@@H](O)/C=C/C=C/C=C\[C@@H](O)CCCC(=O)O,"Calcium-activated potassium channel subunit beta-1, with BK alpha subunit (Kcnmb1, Rattus norvegicus, UniProt P97678)","ion current, activator",,,,EC50,1 nM
O=C(O)CC(=O)C(=O)O,Thermoplasma acidophilum citrate synthase,fluorescence titration,,"20 °C, unliganded enzyme",,Kd,1300 nM
CC(=O)N[C@H](C(=O)N[C@H](C(=O)N[C@@H](Cc1ccccc1)C(=O)N[C@H](C(=O)N[C@@H](CO)C(=O)N[C@@H](Cc1c[nH]c2ccccc12)C(=O)N[C@@H](CCC(=O)O)C(=O)N[C@@H](CCC(=O)O)C(=O)N[C@@H](Cc1ccc(O)cc1)C(=O)N[C@@H](CC(C)C)C(=O)N[C@@H](CC(=O)O)C(=O)N[C@@H](Cc1c[nH]c2ccccc12)C(=O)N[C@H](C(N)=O)C(C)C)[C@@H](C)O)C(C)C)[C@@H](C)O,PCSK9,,,,,Kd,660 ± 11 nM
CN(C)Cc1ccccc1Sc1ccc(I)cc1CO,serotonin transporter,,,,,Ki,0.09 nM
CNC(C)C1CCC(N)C(OC2C(N)CC(N)C(OC3OCC(C)(O)C(NC)C3O)C2O)O1 (stereo not drawn),Enterobacter cloacae,,clinical isolate RKI-No_146/09,,,MIC,2 µg/mL
OC[C@H]1O[C@@H](n2cnc3c(NC(C4CCC4)C4CCC4)nc(Cl)nc32)[C@H](O)[C@@H]1O,"HTR2B (Homo sapiens, UniProt P41595)",binding,,together with: [3H]LSD,,Ki,> 10000 nM
CN/C(=N/CCSCc1nc[nH]c1C)NC#N,"SLC22A2 (Homo sapiens, UniProt O15244)",inhibitor,,,,Ki,124000 nM
CCCCCCCCCCCCCCCC(=O)OCC(CSC[C@H](N)C(=O)N[C@@H](CO)C(=O)OC)OC(=O)CCCCCCCCCCCCCCC (stereo partly drawn),"TLR2/TLR6 (Homo sapiens, UniProt O60603+Q9Y2C9)",agonist,,literature value,,EC50,0.4 nM
Cc1oncc1C(=O)Nc1ccc(C(F)(F)F)cc1,CAR (constitutive androstane receptor),"receptor activation, agonist, Tox21 HTS",,,,AC50,770 nM
O=C(O)CCCOc1ccc(F)cc1-c1cc(-c2ccccc2C(F)(F)F)n(-c2ccccc2)n1,FABP3,binding,,,,Kd,24 ± 7 nM
CO[C@H]1/C=C/O[C@@]2(C)Oc3c(C)c(O)c4c(O)c(c(/C=N/N5CCN(C)CC5)c(O)c4c3C2=O)NC(=O)/C(C)=C\C=C\[C@H](C)[C@H](O)[C@@H](C)[C@@H](O)[C@@H](C)[C@H](OC(C)=O)[C@@H]1C,"Cytochrome P450 2C8 (CYP2C8, Homo sapiens, UniProt P10632)",enzyme induction,,,,EC50,340 nM
CN(C)Cc1ccccc1Oc1ccc(I)cc1CO,serotonin transporter,,,,,Ki,0.12 nM
CC(=O)N[C@@H](CC(N)=O)C(=O)N[C@@H](CC(C)C)C(=O)N[C@]1(C)CCCCCCC=CCCC[C@@](C)(C(=O)N[C@@H](CCC(=O)O)C(=O)N[C@@H](CC(C)C)C(=O)N[C@@H](CC(N)=O)C(N)=O)NC(=O)[C@H](CC(C)C)NC(=O)[C@H](CC(C)C)NC(=O)[C@H](CCCNC(=N)N)NC(=O)[C@H](CC(=O)O)NC(=O)[C@H](CC(C)C)NC(=O)[C@H](CCC(=O)O)NC1=O,FAK-paxillin interaction,"protein-protein interaction disruption, inhibitor",,,,Ki,5800 nM
CNC(=O)[C@@]12C[C@@H]1[C@@H](n1cnc3c(NCc4cccc(Cl)c4)nc(C#Cc4ccc(F)c(F)c4)nc31)[C@H](O)[C@@H]2O,"ADRA2A (Homo sapiens, UniProt P08913)",radioligand binding (PDSP),,,,Ki,1000 to 10000 nM
CC1(C)S[C@@H]2[C@H](NC(=O)[C@H](N)c3ccccc3)C(=O)N2[C@H]1C(=O)O,Enterobacter cloacae,,clinical isolate RKI-No_141/15,,,MIC,> 16 µg/mL
O=C(C1CCSCC1)N1CC(=O)N2CCc3ccccc3[C@@H]2C1,TRPM channel TRPM_PZQ,,,,,EC50,300 ± 10 nM
C=CC(=O)N1CCC[C@@H]1Cn1c(NC(=O)c2ccc(C(F)F)s2)nc2cc(CN[C@@H](C)C(C)(C)C)ccc21,RLK (TXK),covalent inhibitor,,,,kinact/KI,460000 M⁻¹ s⁻¹
O=C(C1CCC(F)(F)CC1)N1CC(=O)N2CCc3ccccc3[C@@H]2C1,TRPM channel TRPM_PZQ,,,,,EC50,2500 ± 700 nM
Nc1nc2[nH]cc(CCc3ccc(C(=O)N[C@@H](CCC(=O)O)C(=O)O)cc3)c2c(=O)[nH]1,"TYMS (Homo sapiens, UniProt P04818)",,,,,Kd,340 nM
CC(C)=CCc1cc2c(cc1O)O[C@H](c1ccc(O)cc1)CC2=O,estrogen receptor beta,agonist,,,,EC50,680 nM
Nc1cc(C(F)(F)F)c(-c2nc(N3CCOCC3)nc(N3CCOCC3)n2)cn1,"SRPK1 (Homo sapiens, UniProt Q96SB4)",enzyme activity,,10 µM,relative to: untreated,remaining activity,78%

# Repeated from above:
SMILES,tested on,test,test system,conditions,how to read,endpoint,result
CN(C)Cc1ccccc1Sc1ccc(I)cc1CO,serotonin transporter,,,,,Ki,0.09 nM
CNC(C)C1CCC(N)C(OC2C(N)CC(N)C(OC3OCC(C)(O)C(NC)C3O)C2O)O1 (stereo not drawn),Enterobacter cloacae,,clinical isolate RKI-No_146/09,,,MIC,2 µg/mL
